Measurements of several laboratories.
Lines come from different studies, so protocols differ. Numbers after ± are the reported error.
ERBB2: Receptor tyrosine-protein kinase erbB-2 (ERBB2, Homo sapiens, UniProt P04626)
UniProt Q8N3J6, sequence (whole entry, looked up): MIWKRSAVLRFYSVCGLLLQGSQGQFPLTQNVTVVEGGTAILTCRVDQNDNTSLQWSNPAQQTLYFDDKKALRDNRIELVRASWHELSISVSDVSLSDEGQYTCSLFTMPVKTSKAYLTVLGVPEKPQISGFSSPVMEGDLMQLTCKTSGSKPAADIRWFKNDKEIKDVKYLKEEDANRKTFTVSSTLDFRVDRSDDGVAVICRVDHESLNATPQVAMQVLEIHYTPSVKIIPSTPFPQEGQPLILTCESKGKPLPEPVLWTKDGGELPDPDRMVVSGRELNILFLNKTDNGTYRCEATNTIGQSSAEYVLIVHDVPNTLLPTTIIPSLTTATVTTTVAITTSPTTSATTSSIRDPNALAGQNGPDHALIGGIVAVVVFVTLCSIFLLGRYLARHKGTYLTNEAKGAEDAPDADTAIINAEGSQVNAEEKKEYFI
UniProt P08510, sequence (whole entry, unmodified, looked up): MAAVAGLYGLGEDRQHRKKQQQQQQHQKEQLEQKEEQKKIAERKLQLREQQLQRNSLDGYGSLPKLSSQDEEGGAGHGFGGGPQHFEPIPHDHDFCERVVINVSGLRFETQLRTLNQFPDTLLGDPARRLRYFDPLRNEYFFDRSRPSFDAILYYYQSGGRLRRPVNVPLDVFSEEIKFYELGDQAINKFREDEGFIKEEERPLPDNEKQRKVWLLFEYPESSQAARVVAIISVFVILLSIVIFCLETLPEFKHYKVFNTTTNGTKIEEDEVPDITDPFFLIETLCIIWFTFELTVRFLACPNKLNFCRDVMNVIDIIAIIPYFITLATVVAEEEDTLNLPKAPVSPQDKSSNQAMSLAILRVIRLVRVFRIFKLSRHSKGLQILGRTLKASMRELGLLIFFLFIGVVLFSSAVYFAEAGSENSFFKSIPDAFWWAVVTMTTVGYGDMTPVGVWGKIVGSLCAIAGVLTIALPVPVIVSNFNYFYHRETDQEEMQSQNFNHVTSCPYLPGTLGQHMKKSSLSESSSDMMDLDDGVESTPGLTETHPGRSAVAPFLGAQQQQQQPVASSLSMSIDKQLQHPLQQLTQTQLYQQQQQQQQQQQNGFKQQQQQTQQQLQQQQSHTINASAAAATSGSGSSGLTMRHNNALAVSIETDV
UniProt O43639, sequence (whole entry, looked up): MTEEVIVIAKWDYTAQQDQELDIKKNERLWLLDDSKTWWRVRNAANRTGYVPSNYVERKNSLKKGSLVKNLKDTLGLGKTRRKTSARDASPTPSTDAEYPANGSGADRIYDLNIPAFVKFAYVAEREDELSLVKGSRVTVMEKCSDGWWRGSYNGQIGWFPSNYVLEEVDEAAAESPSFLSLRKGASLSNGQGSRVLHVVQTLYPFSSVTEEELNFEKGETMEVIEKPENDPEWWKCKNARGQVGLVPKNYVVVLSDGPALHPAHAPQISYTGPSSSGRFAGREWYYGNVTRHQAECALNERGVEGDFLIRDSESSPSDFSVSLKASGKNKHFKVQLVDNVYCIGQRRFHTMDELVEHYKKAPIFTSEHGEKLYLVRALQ
UniProt P50552, sequence (whole entry, looked up): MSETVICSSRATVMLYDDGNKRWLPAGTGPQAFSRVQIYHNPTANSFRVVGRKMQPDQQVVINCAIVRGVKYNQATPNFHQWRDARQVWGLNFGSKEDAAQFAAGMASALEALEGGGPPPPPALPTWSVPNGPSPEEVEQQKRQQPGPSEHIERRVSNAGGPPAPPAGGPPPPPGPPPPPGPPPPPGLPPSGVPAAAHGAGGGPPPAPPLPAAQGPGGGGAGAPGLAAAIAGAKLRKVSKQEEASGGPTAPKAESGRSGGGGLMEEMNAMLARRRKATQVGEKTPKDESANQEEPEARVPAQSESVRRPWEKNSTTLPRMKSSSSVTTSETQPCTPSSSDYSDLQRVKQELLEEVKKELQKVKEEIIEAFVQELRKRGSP
UniProt P00811, sequence (whole entry, looked up): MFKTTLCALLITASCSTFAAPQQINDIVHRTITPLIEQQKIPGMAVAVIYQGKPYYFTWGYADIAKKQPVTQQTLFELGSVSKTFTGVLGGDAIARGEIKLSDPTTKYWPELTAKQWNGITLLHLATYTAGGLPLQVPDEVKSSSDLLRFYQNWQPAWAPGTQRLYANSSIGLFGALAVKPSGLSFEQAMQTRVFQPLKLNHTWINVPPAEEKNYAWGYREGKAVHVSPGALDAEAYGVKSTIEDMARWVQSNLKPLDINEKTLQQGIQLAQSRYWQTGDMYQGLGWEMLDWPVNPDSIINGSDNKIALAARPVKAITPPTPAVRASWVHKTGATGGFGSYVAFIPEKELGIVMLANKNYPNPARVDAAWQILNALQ
UniProt P10415, sequence (whole entry, looked up): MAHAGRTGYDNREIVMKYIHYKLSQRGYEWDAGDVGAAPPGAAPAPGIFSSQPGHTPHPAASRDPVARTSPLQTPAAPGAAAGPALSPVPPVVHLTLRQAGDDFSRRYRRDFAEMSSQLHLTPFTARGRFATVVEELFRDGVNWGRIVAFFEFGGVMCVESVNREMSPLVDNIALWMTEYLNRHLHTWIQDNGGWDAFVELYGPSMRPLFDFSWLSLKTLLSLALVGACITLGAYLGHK
UniProt P0C264, sequence (whole entry, looked up): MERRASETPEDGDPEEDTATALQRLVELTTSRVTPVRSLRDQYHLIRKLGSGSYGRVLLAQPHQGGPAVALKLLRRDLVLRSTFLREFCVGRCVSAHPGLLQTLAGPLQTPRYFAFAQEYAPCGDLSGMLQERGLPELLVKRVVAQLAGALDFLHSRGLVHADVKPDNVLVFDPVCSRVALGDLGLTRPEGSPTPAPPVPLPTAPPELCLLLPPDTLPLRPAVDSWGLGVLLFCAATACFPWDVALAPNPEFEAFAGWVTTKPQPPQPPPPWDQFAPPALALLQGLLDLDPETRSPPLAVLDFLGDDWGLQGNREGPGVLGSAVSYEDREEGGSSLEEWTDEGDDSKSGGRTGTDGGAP
UniProt Q96SW2, sequence (whole entry, looked up): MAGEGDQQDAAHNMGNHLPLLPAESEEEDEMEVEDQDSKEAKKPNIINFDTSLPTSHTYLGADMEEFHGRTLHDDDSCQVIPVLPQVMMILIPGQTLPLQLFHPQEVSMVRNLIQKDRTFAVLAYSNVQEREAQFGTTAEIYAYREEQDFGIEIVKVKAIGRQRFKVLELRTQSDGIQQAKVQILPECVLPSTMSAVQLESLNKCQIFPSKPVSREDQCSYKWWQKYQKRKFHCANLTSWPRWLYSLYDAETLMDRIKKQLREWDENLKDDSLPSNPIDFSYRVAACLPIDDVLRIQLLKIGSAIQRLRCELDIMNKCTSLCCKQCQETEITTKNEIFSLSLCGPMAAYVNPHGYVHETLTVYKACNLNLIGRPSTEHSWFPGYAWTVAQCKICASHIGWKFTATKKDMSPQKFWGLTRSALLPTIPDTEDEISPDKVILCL

With CC(C)C[C@H](NC(=O)[C@H](CCCNC(=N)N)NC(=O)[C@H](CO)NC(=O)[C@H](CC(N)=O)NC(=O)c1ccc2c(c1)C(=O)OC21c2ccc(N(C)C)cc2Oc2cc(N(C)C)ccc21)C(=O)NCC(=O)N[C@@H](CC(N)=O)C(=O)NCC(=O)N[C@H](C(=O)N[C@@H](CC(C)C)C(=O)N[C@@H](Cc1ccc(OP(=O)(O)O)cc1)C(=O)N[C@@H](C)C(=O)N[C@@H](CO)C(=O)N[C@H](C(=O)N[C@@H](CC(N)=O)C(=O)N1CCC[C@H]1C(=O)N[C@@H](CCC(=O)O)C(=O)N[C@@H](Cc1ccc(O)cc1)C(=O)N[C@@H](CC(=O)O)C(=O)O)C(C)C)C(C)C the Kd was 0.349 µM (Cytoplasmic protein NCK2, SH2 domain (NCK2, Homo sapiens, UniProt O43639); binding).
O=C(N[C@@H]1c2ccccc2C[C@H]1N1CCCC1)c1ccc(-c2ccnc3[nH]ccc23)nc1 has a Kd of 0.105 µM (SBK3 (Homo sapiens, UniProt P0C264); binding, competition with immobilised ligand).
With CC[C@H](C)[C@H](NC(=O)[C@H](CCC(=O)O)NC(=O)[C@H](CCCNC(=N)N)NC(=O)[C@H](C)NC(=O)[C@H](Cc1c[nH]c2ccccc12)NC(=O)[C@H](CCC(N)=O)NC(=O)[C@H](CCC(=O)O)NC(=O)[C@H](CCC(=O)O)NC(=O)[C@H](CCC(=O)O)NC(=O)CNC(=O)[C@H](CCCNC(=N)N)NC(=O)CCCCCNC(=O)CCNC(=S)Nc1ccc2c(c1)C(=O)OC21c2ccc(O)cc2Oc2cc(O)ccc21)C(=O)NCC(=O)N[C@@H](C)C(=O)N[C@@H](CCC(N)=O)C(=O)N[C@@H](CC(C)C)C(=O)N[C@@H](CCCNC(=N)N)C(=O)N[C@@H](CCCNC(=N)N)C(=O)N[C@@H](CCSC)C(=O)N[C@@H](C)C(=O)N[C@@H](CC(=O)O)C(=O)N[C@@H](CC(=O)O)C(=O)N[C@@H](CC(C)C)C(=O)N[C@@H](CC(N)=O)C(=O)O the Kd was 0.054 µM (BCL2 (Homo sapiens, UniProt P10415); binding, fluorescence polarization; with: fluorescein-labelled BH3 peptide).
CC(C)C[C@H](NC(=O)[C@H](CCC(=O)O)NC(=O)[C@@H](N)Cc1ccccc1)C(=O)N[C@@H](CCC(=O)O)C(=O)N[C@@H](CCCNC(=N)N)C(=O)N[C@@H](CCCNC(=N)N)C(=O)N[C@@H](Cc1ccccc1)C(=O)N[C@@H](CCCCN)C(=O)N[C@@H](CCC(N)=O)C(=O)N[C@@H](CCC(N)=O)C(=O)O gave a Kd of 0.189 ± 0.0605 µM (PDE1C promoter DNA; binding, isothermal titration calorimetry).
With CC[C@H](C)[C@@H]1NC(=O)[C@@H]2CCCN2C(=O)[C@H](Cc2c[nH]c3ccccc23)NC(=O)[C@H](CO)NC(=O)[C@H](Cc2c[nH]c3ccccc23)NC(=O)[C@H](CC(N)=O)NC(=O)[C@H](CCCCN)NC(=O)[C@H](CCSC)NC(=O)[C@@H]2CSCCC(=O)N3CN(CN(C3)C(=O)CCSC[C@H](NC(=O)[C@H](C)N)C(=O)N3CCC[C@H]3C(=O)N[C@@H](Cc3ccccc3)C(=O)NCC(=O)N2)C(=O)CCSC[C@@H](C(=O)N[C@H](C(=O)N[C@@H](CC(N)=O)C(=O)N[C@@H](CCCCN)C(=O)N(C)CC(=O)N(C)CC(=O)N(C)CC(=O)N(C)CC(=O)N(C)CC(=O)N(C)CC(=O)N[C@@H](CCCCNC(=O)c2ccc(C(=O)O)c(-c3c4ccc(=O)cc-4oc4cc(O)ccc34)c2)C(N)=O)[C@@H](C)O)NC(=O)[C@H](Cc2c[nH]c3ccccc23)NC1=O the Kd was > 2 µM (Cell adhesion molecule 2 (CADM2, Homo sapiens, UniProt Q8N3J6); fluorescence polarization).
CC[C@H](C)[C@H](NC(=O)[C@H](CCSC)NC(=O)[C@H](CC(=O)O)NC(=O)[C@H](CCC(N)=O)NC(=O)[C@H](CC(C)C)NC(=O)[C@@H](N)CCC(=O)O)C(=O)N[C@H]1CC(=O)NC1=O gave a Kd of 0.0319 µM (Protein cereblon, with DDB1 (CRBN, Homo sapiens, UniProt Q96SW2); binding).
CCCC[C@H](NC(=O)[C@H](CCC(=O)O)NC(=O)[C@H](CCCCN)NC(=O)[C@H](CO)NC(=O)[C@H](Cc1ccccc1)NC(C)=O)C(=O)N[C@@H](CCCNC(=N)N)C(=O)N[C@@H](CC(N)=O)C(=O)N[C@@H](CCCNC(=N)N)C(=O)N[C@@H](Cc1ccc(O)cc1)C(=O)N[C@@H](Cc1c[nH]c2ccccc12)C(=O)N[C@@H](CCCC(=O)NCCN(CC(=O)NCCN(CC(=O)NCCN(CC(=O)NCCN(CC(=O)N[C@@H](CCCNC(=N)N)C(N)=O)C(=O)Cn1cnc2c(=O)[nH]c(N)nc21)C(=O)Cn1ccc(N)nc1=O)C(=O)Cn1ccc(N)nc1=O)C(=O)Cn1cnc2c(=O)[nH]c(N)nc21)C(=O)N[C@@H](CS)C(=O)N[C@@H](C)C(=O)N[C@@H](CC(C)C)C(=O)N[C@@H](CC(=O)O)C(=O)N1CCC[C@H]1C(=O)N[C@@H](CC(N)=O)C(=O)N[C@@H](CC(C)C)C(=O)N[C@H](C(=O)N[C@@H](CC(N)=O)C(=O)N[C@@H](CCC(N)=O)C(=O)N[C@@H](CCC(N)=O)C(=O)N[C@@H](CCCCN)C(=O)N[C@@H](CCCNC(=N)N)C(=O)N[C@@H](C)C(=O)N[C@@H](CCCCNC(=O)CN(CCNC(=O)CN(CCNC(=O)CN(CCNC(=O)CN(CCNC(=O)[C@H](CCCNC(=N)N)NC(C)=O)C(=O)Cn1ccc(N)nc1=O)C(=O)Cn1cnc2c(=O)[nH]c(N)nc21)C(=O)Cn1cnc2c(=O)[nH]c(N)nc21)C(=O)Cn1ccc(N)nc1=O)C(=O)N[C@H](C(=O)N[C@@H](CCCNC(=N)N)C(=O)N[C@@H](CO)C(=O)N[C@H](C(=O)N[C@@H](Cc1ccc(O)cc1)C(=O)N[C@@H](CCC(=O)O)C(=O)N[C@@H](CCC(=O)O)C(=O)NCC(=O)N[C@@H](CCC(=O)O)C(N)=O)[C@@H](C)CC)[C@@H](C)CC)[C@@H](C)O gave a Kd of 0.0016 µM (ERBB2; binding, SPR; resynthesised library hit).
CSCC[C@@H](N)C(=O)N[C@H](C)C(=O)N[C@H](C)C(=O)N[C@@H](C(=O)N[C@H](C)C(=O)NCC(=O)N[C@H](CC(C)C)C(=O)N[C@H](Cc1ccc(O)cc1)C(=O)NCC(=O)N[C@H](CC(C)C)C(=O)NCC(=O)N[C@H](CCC(=O)O)C(=O)N[C@H](CC(=O)O)C(=O)N[C@H](CCCNC(=N)N)C(=O)N[C@H](CCC(N)=O)C(=O)N[C@H](Cc1c[nH]cn1)C(=O)N[C@H](CCCNC(=N)N)C(=O)N[C@H](CCCCN)C(=O)N[C@H](CCCCN)C(=O)N[C@H](CCC(N)=O)C(N)=O)C(C)C has a Kd of 11.1 µM (Sh, DEL6-46 (Drosophila melanogaster, UniProt P08510); ion current, blocker, inside-out patch clamp; Xenopus oocytes; range over 10 µM, pH 7.0, 22–24 °C, at 0 mV).
The Kd of CC(=O)N[C@@H](CO)C(=O)N[C@@H](Cc1ccccc1)C(=O)N[C@@H](CCC(=O)O)C(=O)N[C@@H](Cc1ccccc1Cl)C(=O)N1CCC[C@H]1C(=O)N1CCC[C@H]1C(=O)N1CC[C@@H]2C=C[C@H]3CC[C@@H](C(=O)N[C@H](C(=O)N[C@@H](CCC(=O)O)C(=O)N[C@@H](CC(=O)O)C(=O)N[C@@H](CCC(=O)O)C(=O)N[C@@H](CC(C)C)C(N)=O)[C@@H](C)O)N3C(=O)[C@H]21 is reported as 0.31 µM (VASP (Homo sapiens, UniProt P50552); binding, fluorescence).
CC[C@H](C)[C@H](NC(=O)[C@H](CCCCNC(=O)CN(CCNC(=O)CN(CCNC(=O)CN(CCNC(=O)CN(CCNC(=O)[C@H](CCCNC(=N)N)NC(C)=O)C(=O)Cn1ccc(N)nc1=O)C(=O)Cn1cnc2c(=O)[nH]c(N)nc21)C(=O)Cn1cnc2c(=O)[nH]c(N)nc21)C(=O)Cn1ccc(N)nc1=O)NC(=O)[C@H](C)NC(=O)[C@H](CCCNC(=N)N)NC(=O)[C@H](CCCCN)NC(=O)[C@H](CCC(N)=O)NC(=O)[C@H](CCC(N)=O)NC(=O)[C@H](CC(N)=O)NC(=O)[C@@H](NC(=O)[C@H](CC(C)C)NC(=O)[C@H](CC(N)=O)NC(=O)[C@@H]1CCCN1C(=O)[C@H](CC(=O)O)NC(=O)[C@H](CC(C)C)NC(=O)[C@H](C)NC(=O)[C@H](C)NC(=O)[C@H](CCC(=O)NCCN(CC(=O)NCCN(CC(=O)NCCN(CC(=O)NCCN(CC(=O)N[C@@H](CCCNC(=N)N)C(N)=O)C(=O)Cn1cnc2c(=O)[nH]c(N)nc21)C(=O)Cn1ccc(N)nc1=O)C(=O)Cn1ccc(N)nc1=O)C(=O)Cn1cnc2c(=O)[nH]c(N)nc21)NC(=O)[C@H](Cc1c[nH]c2ccccc12)NC(=O)[C@H](Cc1ccc(O)cc1)NC(=O)[C@H](CCCNC(=N)N)NC(=O)[C@H](CC(N)=O)NC(=O)[C@H](CCCNC(=N)N)NC(=O)[C@H](CCSC)NC(=O)[C@H](CCC(=O)O)NC(=O)[C@H](CCCCN)NC(=O)[C@H](CO)NC(=O)[C@H](Cc1ccccc1)NC(C)=O)[C@@H](C)O)C(=O)N[C@@H](CCCNC(=N)N)C(=O)N[C@@H](CO)C(=O)N[C@H](C(=O)N[C@@H](Cc1ccc(O)cc1)C(=O)N[C@@H](CCC(=O)O)C(=O)N[C@@H](CCC(=O)O)C(=O)NCC(=O)N[C@@H](CCC(=O)O)C(N)=O)[C@@H](C)CC has a Kd of 0.005 µM (ERBB2; binding, SPR).
For CC(C)C(Nc1ncnc2c1oc1ccccc12)C(=O)O (centres unmarked), the Kd was 1500 µM (Beta-lactamase (ampC, Escherichia coli K-12, UniProt P00811)).
